Measurements collected from several papers.
Numbered parts are unrelated; each lists some results of a single study. Values joined by “and” are separate records of one study, mostly repeats; a detail may differ.

Series 1 — action: inhibitor
Target: Replicase polyprotein 1ab, nsp14 (rep, Severe acute respiratory syndrome coronavirus 2, UniProt P0DTD1)
SMILES	IC50
COc1ccccc1CNC(=O)c1cc(S(=O)(=O)N2CCn3nccc3C2)c(C)n1C	32 nM and 11 nM
CCc1c(S(=O)(=O)N2CCC(C)CC2)cc(C(=O)NCc2ccccc2OC)n1C	1650 nM
Cc1c(S(=O)(=O)N2CCn3nccc3C2)cc(C(=O)NCc2cccc3cnn(C)c23)n1C	2.5 nM
COc1ccccc1CNC(=O)c1cc(S(=O)(=O)N2CCOCC2)c(C)n1C	> 6250 nM
Cc1c(CN2Cc3ccccc3C2)cc(C(=O)NCc2cccnc2N2CCCC2)n1C	> 6250 nM

Single results of other studies
Compound	target or system	assay	test system	setting	how to read	measurement	value
CC1COc2ccccc2N1C(=O)C(Cl)Cl (stereo not shown)	cytosolic carboxylesterase	substrate depletion	rhesus monkey, female, liver cytosol	5 µM, pH 7.4, without glutathione		intrinsic clearance	500 µL/min/mg
COC(=O)Nc1c(N)nc(-c2nn(Cc3ccccc3F)c3ncc(F)cc23)nc1N			human, plasma	5 mg, geometric mean, together with: magnesium/aluminum hydroxide		Cmax	78.3 ng/mL
O=C(Nc1nc2cccc(-c3ccc(CN4CCS(=O)(=O)CC4)cc3)n2n1)C1CC1		item: injury or procedural complication	rheumatoid arthritis patients	oral, 200 mg once daily, 4 weeks, any relatedness		patients with adverse event	0%
N#CCC1CCN(c2nc(Nc3ccc(N4CCC(O)CC4)cc3)c3c(=O)[nH]ncc3n2)CC1		vs placebo, Olink multiplex	human, serum	20 mg, day 29, unit not given	reference: placebo	osteopontin level difference	1
Fc1ccccc1Cc1nc(-c2nc(C(F)(F)F)n[nH]2)cn2ccnc12		item: ALL	healthy humans	oral, 10 mg, fasted, single dose		subjects with adverse events	35.7%

A few entries again (single results of other studies):
Compound	target or system	assay	test system	setting	how to read	measurement	value
Fc1ccccc1Cc1nc(-c2nc(C(F)(F)F)n[nH]2)cn2ccnc12		item: ALL	healthy humans	oral, 10 mg, fasted, single dose		subjects with adverse events	35.7%
N#CCC1CCN(c2nc(Nc3ccc(N4CCC(O)CC4)cc3)c3c(=O)[nH]ncc3n2)CC1		vs placebo, Olink multiplex	human, serum	20 mg, day 29, unit not given	reference: placebo	osteopontin level difference	1
